Measured values of several laboratories.
Each numbered part is a random draw from the data of one study; scales do not carry over between parts.

Series 1
Target: Eukaryotic initiation factor 4A-I (EIF4A1, Homo sapiens, UniProt P60842, residues 1-406, full length assumed)
Sequence of UniProt P60842 (whole entry, looked up): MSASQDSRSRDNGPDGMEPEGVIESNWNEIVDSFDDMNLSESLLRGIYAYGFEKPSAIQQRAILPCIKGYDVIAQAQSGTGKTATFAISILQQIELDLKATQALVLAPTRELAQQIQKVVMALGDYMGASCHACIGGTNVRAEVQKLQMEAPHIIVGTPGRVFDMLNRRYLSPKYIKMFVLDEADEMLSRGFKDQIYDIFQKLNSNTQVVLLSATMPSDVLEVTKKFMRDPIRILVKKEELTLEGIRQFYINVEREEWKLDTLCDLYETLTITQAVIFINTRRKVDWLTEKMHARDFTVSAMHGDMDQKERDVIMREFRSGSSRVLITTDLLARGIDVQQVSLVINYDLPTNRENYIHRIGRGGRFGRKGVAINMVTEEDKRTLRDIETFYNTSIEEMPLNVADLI
Technique: RNA Bind-n-Seq
Form: RNA
Matrix: in vitro
Tested at: not given
Setting: 4-mer, random 30-nt RNA, single round
Together with: RocA, ADP, phosphate
Baseline: input library
Direction: higher = stronger binding
| Strand | 4-mer enrichment |
| --- | --- |
| ACUC | 0.468 fold |
| AUUG | 1.05 fold |
| CUCG | 0.536 fold |
| CACA | 0.687 fold |
| AUAG | 1.08 fold |
| GUGC | 0.845 fold |
| AUGA | 1.46 fold |
| AAGG | 1.35 fold |
| GGAG | 3.67 fold |
| GGGU | 1.09 fold |
| GUGA | 1.7 fold |
| AUCC | 0.575 fold |
| AGAG | 3.49 fold |
| GGUC | 0.736 fold |
| CCGC | 0.593 fold |
| CCGU | 0.631 fold |
| CCAU | 0.615 fold |
| UAAU | 0.901 fold |

Series 2
Target: Ras GTPase-activating protein-binding protein 1, full length (G3BP1, Homo sapiens, UniProt Q13283)
Sequence of UniProt Q13283 (whole entry, looked up): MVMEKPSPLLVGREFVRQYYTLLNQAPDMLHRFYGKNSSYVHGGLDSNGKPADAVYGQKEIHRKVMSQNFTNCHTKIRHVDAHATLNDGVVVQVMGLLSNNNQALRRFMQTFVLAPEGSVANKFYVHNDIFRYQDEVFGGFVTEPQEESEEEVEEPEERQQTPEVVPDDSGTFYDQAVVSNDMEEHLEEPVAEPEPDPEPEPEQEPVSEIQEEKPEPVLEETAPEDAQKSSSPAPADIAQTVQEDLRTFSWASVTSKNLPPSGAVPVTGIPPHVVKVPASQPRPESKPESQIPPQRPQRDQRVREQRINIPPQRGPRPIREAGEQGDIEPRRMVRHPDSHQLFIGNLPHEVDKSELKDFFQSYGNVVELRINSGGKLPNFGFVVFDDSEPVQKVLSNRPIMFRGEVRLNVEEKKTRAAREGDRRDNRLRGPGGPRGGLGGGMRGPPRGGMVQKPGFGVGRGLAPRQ
Technique: RNA Bind-n-Seq
Form: RNA
Matrix: in vitro
Tested at: 200 nM
Setting: whole 134-nt RNA, ends assumed
Together with: 150 mM LiCl
Baseline: input library
Direction: higher = stronger binding
Each molecule: 7-deaza-guanosine replaces G
Constant ends, left off below: GGGAGUUCUACAGUCCGACGAUC … UGGAAUUCUCGGGUGUCAAGG
| Strand | log2 enrichment |
| --- | --- |
| AGUCCUGUGCUACACAUCGUAUGUACCGAAUCGGGGAAAGGGGAAAGGGGUUUGGGGAAAGUAUUAUGUUACGCCGUUCGGAUCUGCACU | -0.856 |
| UCCUGUGCUACACAUCGUAUGUACCGAAUCGGGAAAAAAGGGAAAAAAGGGAAAAAAGGAAAGUAUUAUGUUACGCCGUUCGGAUCUGCA | 0.0261 |
| AAGUCCUGUGCUACACAUCGUAUGUACCGAAUCGGUUUUUGGAAAGGAAAAAAAGGAAAGUAUUAUGUUACGCCGUUCGGAUCUGCACUU | -0.923 |
| CCUGUGCUACACAUCGUAUGUACCGAAUCGGGUUUUUUUGGGUUUUUUUGGGUUUUUUUGGAAAGUAUUAUGUUACGCCGUUCGGAUCUG | 1.26 |
| UAACUUUAGAGGAGGAUCUGAUGGAUAUGGCAGUGGACGUGGAUUUGGGGAUGGCUAUAAUGGGUAUGAAGGAGGACCUGGAGGUGGCAA | -0.209 |
| UGGACCCGGAGCUGAUGCAGAAGUUCAGCUGCCUGGGCACCACCGACAAGGACGUGCUCAUCUCCGAGUUCCAGAGGCUGCUCGGCUUCC | -1.17 |
| AAGUCCUGUGCUACACAUCGUAUGUACCGAAUCGGGGCCCCGGGCCCCGGCCCCGGAAAGUAUUAUGUUACGCCGUUCGGAUCUGCACUU | -2.43 |
| UAACUUUAGAGGAGGAUCUGAUGGAUAUGGCAGUGGACUUGGAUUUGGGGAUGGCUAUAAUGGGUAUGGAGGAGGACCUGGAGGUGGCAA | -0.287 |
| AGUCCUGUGCUACACAUCGUAUGUACCGAAUCGGGAAAAGGGGAAAAGGAAAAGGGGAAAGUAUUAUGUUACGCCGUUCGGAUCUGCACU | -0.336 |
| ACCAUGCAGGUGGGCAAAUUUGGGAAGUGGGGCAAGGGGGGGAUAGGGAGGGGGGUAACACUUUGGGAACAGGUGGUCCCAGGUCGUUUC | 0.112 |
| UCCUGUGCUACACAUCGUAUGUACCGAAUCAAACCCCCCCAAAUUUAAAUUUUUUUAAAAAAGUAUUAUGUUACGCCGUUCGGAUCUGCA | 1.48 |

Series 3
Target: Interferon regulatory factor 3, full length, phosphomimetic (IRF3, Homo sapiens, UniProt Q14653, residues 1-427, S386D/S396D/S398D/S402D/T404D/S405D)
Sequence of UniProt Q14653 (whole entry, unmodified, looked up): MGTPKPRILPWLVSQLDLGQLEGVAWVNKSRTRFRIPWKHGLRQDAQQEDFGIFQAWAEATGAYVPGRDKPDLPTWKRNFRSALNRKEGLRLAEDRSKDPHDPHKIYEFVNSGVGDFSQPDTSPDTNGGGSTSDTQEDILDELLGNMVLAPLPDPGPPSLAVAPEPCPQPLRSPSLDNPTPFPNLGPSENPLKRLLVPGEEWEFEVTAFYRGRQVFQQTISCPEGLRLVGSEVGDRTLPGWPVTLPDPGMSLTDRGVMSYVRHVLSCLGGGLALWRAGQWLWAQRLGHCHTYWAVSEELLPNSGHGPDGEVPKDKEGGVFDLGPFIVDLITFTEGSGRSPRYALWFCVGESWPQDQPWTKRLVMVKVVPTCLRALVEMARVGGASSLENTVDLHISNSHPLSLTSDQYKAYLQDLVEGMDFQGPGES
Technique: protein-binding microarray
Form: double-stranded DNA, one strand shown
Matrix: in vitro
Tested at: 2540 nM top
Setting: 60-bp whole probe
Together with: salmon DNA 0.4 mg/ml
Baseline: random background probes
Direction: higher = stronger binding
Constant ends, left off below: GCCTAGCAC … GTCTTGATTCGCTTGACGCTGCTG
| Strand | fitted relative affinity [z-score] |
| --- | --- |
| TGTGTCTGGAATTTTTAGAAGTGCTAG | -0.257 |
| GACGGTTCCCTTTGCCTGACGTGCTAG | 3.52 |
| GACGGTTTGGGGTTTCGGGACGTGCTA | 1.1 |
| TCATTTTTTTTTTCCCTACTGTGCTAG | 2.02 |
| TTAGTTTTCGGGTTTCGGTTAGTGCTA | 4.46 |
| GACGAACTGTGTCTCGAGACGTGCTAG | -0.144 |
| TTAGATTTCAGTTCCGATGAGTGCTAG | 2.94 |
| TTAGGACTAGGTTTCGGTTAGTGCTAG | 4.12 |
| TTTGCTCTGTGCATAGTTCTGTGCTAG | -0.247 |
| TTAGATTTCTGGTTTCGATTAGTGCTA | 3.05 |
| GAAGATTTCAGTTCCGAGACGTGCTAG | 2.84 |
| TCAAGTCCCAAGAATGGTACTGTGCTA | -0.499 |
| GCCGGTCTCCTTATCCTGACGTGCTAG | 3.57 |
| TTAGGTCTCCTAGTGCTTTAGTGCTAG | 0.67 |
| TTAGGACTAGACTATCGGTTAGTGCTA | -0.37 |
| TTAGGTTTCGACACCGGGTTAGTGCTA | 2.25 |
| TTCAGTTTCTCTTTCCTTCTGTGCTAG | 7.17 |
| TCATCATTGTTTTTCATACTGTGCTAG | 0.617 |
| TTAAGTTTCGGTTCCGGTTAGTGCTAG | 10.9 |
| TTAGGTATCCTACTGATTTAGTGCTAG | 2.2 |
| TTCACTTTCTTTAACTCATTGTGCTAG | 2.89 |
| TTAGGTCTCGGTTCCGGTTAGTGCTAG | 2.74 |
| TAGTATATACACTTATGACTGTGCTAG | -0.0378 |
| GACGGTTCCAGTTTCGGGACGTGCTAG | 5.15 |
| TTAAAACTGAGTTTCGATTAGTGCTAG | 2.74 |

Series 4
Target: Hepatocyte nuclear factor 3-alpha (Foxa1, Mus musculus, UniProt P35582, residues 1-468, full length assumed)
Sequence of UniProt P35582 (whole entry, looked up): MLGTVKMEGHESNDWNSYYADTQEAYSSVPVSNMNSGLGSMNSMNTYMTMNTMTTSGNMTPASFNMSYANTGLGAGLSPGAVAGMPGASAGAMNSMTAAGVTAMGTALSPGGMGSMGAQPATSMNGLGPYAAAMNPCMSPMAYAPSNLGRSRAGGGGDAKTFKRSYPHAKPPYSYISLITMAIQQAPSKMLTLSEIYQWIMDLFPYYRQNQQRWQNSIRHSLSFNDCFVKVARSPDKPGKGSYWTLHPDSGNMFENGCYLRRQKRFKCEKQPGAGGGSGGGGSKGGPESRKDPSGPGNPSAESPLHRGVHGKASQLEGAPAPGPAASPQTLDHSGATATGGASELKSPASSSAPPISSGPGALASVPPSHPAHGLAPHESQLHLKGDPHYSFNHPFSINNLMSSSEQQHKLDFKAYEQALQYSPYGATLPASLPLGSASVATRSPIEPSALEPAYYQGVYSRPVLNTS
Technique: EMSA with sequencing
Form: double-stranded DNA, one strand shown
Matrix: in vitro
Tested at: 10 and 20 nM
Setting: whole designed probe, mean of two concentrations, ends assumed
Baseline: negative control set to 0
Direction: higher = stronger binding
Constant ends, left off below: GTGAGCGGTGCCCATTGATGGGGAAC … TTTCACTGGGATCGTGGGGAC
| Strand | normalised bound fraction [ratio] |
| --- | --- |
| CTCCAGGGTAGTTGTCCTTCCTGTGGCTGCTCACTGATCCAGGCTACTTTGATCTTGTGACTCAAAGTTCAACAAAATGTGGATGCGTCATTTTATTTACACTTCAATGGCCAGAAGGCCTCATCTTACGAAATCCAGTTGCAAGAAGTTTGGGAAATGTAGCCTTCCATATTTACAGGAATAAATGAAAAAC | 0.269 |
| TGATGAGAAACATGATAATTATTTAGTCTGAAAGGATCTTCTCCAATAATTTTTTTTTGTCGTGATACATTCCTGACTTCTCGACGCCCAAATGCAAACAAACCTAAATTGAGGGAAATTCTATGCAATACCTAACCATTATTCATCAAATGTACACAGGAGTACAGTGACACAATCATGGTTCACTGTAACC | 0.361 |
| CTTCTTAGCCCTGGTGCTATTTCTTGGCTTCCACACATTCTGTACAATTGCAGCCCTGACAGCTAATTTAGCTTCACTGTTGGTGAGTTTCTTGTTTGCTTTTGCTGCTGTCCAAATGATTCAAGGTGCTGAATGACGCCATCTGTATGTTGCTAGAGGCTGAGAGGGGGCTGGGAGGAAGCCTTAAGTCAAG | 0.372 |
| AAGCCTCCAGATAGAAGCCTCTGGGCTTCTTGCAGGAGTGACTTTGAGCAGAGCCATGATGTATACATGAACCATTAAGAAGCACATTCTCAGAGTAATCTGGGGTGCACAATATGAAATCTCATACTGATCACATATGCCAGTGTGATTGCAGGGTTTATTTTTAGGAGTTTCATTTGGGGATCTTTTTCCA | -0.0537 |
| CCCCTCTTTCAGGTTGGGCCCTATAACTTCACCATTTGCAGCTTAGAGGATTTTATTGTCACCCTTGGCTTCCATTAGAGTAAATCATTCTTTGTTTACATTGTTACAATATGTACAGTCTTTATGTAAAATCATGTTACAGTAGCATGATTTTTTAAAGAAAATTGTTTATTCTTTTAAAAACCTTTTAAAA | 0.485 |
| AGAACTGTTTGTGTACGAACCGTTCAAATACAAAGCTAGCAACACAGCTCTCCTTCAGCCTCTACACACGTCCACCGGCTGCTCTTTTAATTCTGTTGACACAATAAGTGAGTCAGAGAAGGTGGGACAATGACCCTGATGGAGGATGGGAAAAGCTGTCTATACTCAAACACAAAACAAGAGTAAATGAAAA | 0.289 |
| ATCTTCCCCCTCTTCCTTGCCCCACCAGCTCACCTTCCCGGGTATATTGGAGATAGGAAATTAATATAAGCCGGCATTCGTTAACCCTCTTCACGCGCATACTGCCAAAGTAAACAGATGAATCATGGTCCTTTGGCGACGCCAGGCTCCGGGAGAGCAAAGCACCGTGTCAGGGCCATGATCCGGGGTGGCC | 0.42 |
| ATTTGTGTTACTTCCTAATTTGGGCAATTATACAATTGCTGTGAACATCTGAGTATAGGTTTTCATGTAAACAGAATTTTTCTTTCATCTAGGGTAATTTCCTAAGTGTGGAGTTGCTGAGTCATATGATAAATGTATGGTTAATAGTATAAGAAGCTGCCAAACTTTTGTGCATAGTGGACAGACCGTTTTA | 0.0526 |

Series 5
Target: Histone acetyltransferase KAT6A, winged helix 2, GST fusion (KAT6A, Homo sapiens, UniProt Q92794, residues 85-181)
Technique: protein binding microarray
Form: double-stranded DNA, one strand shown
Matrix: in vitro
Tested at: not given
Setting: 8-mer, flanks averaged, mean of 2 arrays, mostly near background
Baseline: not given
Direction: higher = stronger binding
Target sequence (chain): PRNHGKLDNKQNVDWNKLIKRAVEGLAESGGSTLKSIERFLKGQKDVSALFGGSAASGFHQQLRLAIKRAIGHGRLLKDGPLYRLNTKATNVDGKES
| Strand | E-score |
| --- | --- |
| CGTAAACG | -0.086 |
| CGCTTTTC | 0.0894 |
| ACCTCGGC | 0.0554 |
| CATCATGA | -0.105 |
| AGGATAAA | 0.0294 |
| TCCGACGA | 0.0723 |
| ACATTTCC | 0.0228 |
| ACAGAAAC | 0.0649 |
| CTGGCATC | -0.0988 |
| CACCATGG | -0.0786 |
| GCTAACAC | 0.0477 |
| AAGCTTGG | -0.0123 |
| CTGGACAC | -0.0407 |
| CACGCACC | 0.11 |
| AAGGCAAA | 0.188 |
| AACCGTCA | -0.0211 |
| ACCTCTGC | -0.109 |
| AATAACGT | -0.187 |
| GCGCACGA | -0.0607 |
| GGCCGGTA | 0.168 |

Repeated from above (series 5):
| Strand | E-score |
| --- | --- |
| AAGGCAAA | 0.188 |
| TCCGACGA | 0.0723 |
| AGGATAAA | 0.0294 |
| CTGGCATC | -0.0988 |
| AATAACGT | -0.187 |
| CTGGACAC | -0.0407 |
| CACGCACC | 0.11 |
| CGTAAACG | -0.086 |
| ACCTCGGC | 0.0554 |
| CATCATGA | -0.105 |
